Results pooled from the literature.
Compare with care: the assays were run in different laboratories. ± gives the spread as reported. Converted amounts (≈) assume the structure as drawn.
Organism: Staphylococcus aureus

| Structure (SMILES) | assay | system | setting | quantity | value |
| --- | --- | --- | --- | --- | --- |
| CCc1nc(N)nc(N)c1C#C[C@H](C)c1cc(OC)cc(-c2ccncc2)c1 | broth microdilution | F98Y DHFR mutant | 18 h, 37 °C | MIC | 5 µg/mL |
| O=[N+]([O-])c1ccccc1S(=O)(=O)Nc1ccc2c(c1)B(O)OC2 | broth microdilution | MRSA ATCC BAA-1762 | – | MIC | 6.25 µg/mL |
| CC(=O)c1cccc(C(C)(C)NC(=O)Nc2ccc(Cl)c(-c3nc(C(F)(F)F)cs3)c2)c1 | – | Smith, RPMI medium | with: 1 mM guanosine | MIC | > 30 µM |
| O=[N+]([O-])c1ccc(S(=O)(=O)Nc2ccc3c(c2)B(O)OC3)cc1F | broth microdilution | MRSA ATCC BAA-1762 | – | MIC | 1.56 µg/mL |
| C=C(C)c1cccc(C(C)(C)NC(=O)Nc2ccc(Cl)c(O)c2)c1 | – | Smith, RPMI medium | with: no guanosine | MIC | 3 µM |
| CO[C@H]1[C@H](O[C@H]([C@H]2O[C@@H](n3ccc(=O)[nH]c3=O)[C@H](O)[C@@H]2O)[C@H](NCCCNC(=O)[C@@H](NC(=O)[C@@H](NC(=O)N[C@H](C(=O)O)C(C)C)[C@@H]2CCNC(=N)N2)[C@@H](OC(=O)CCCCCCCCCCCCN(O)C(=N)N)C(C)C)C(N)=O)O[C@H](CN)[C@H]1O | alamar blue | 71080 | – | MIC90 | 15.2 ± 0.236 µg/mL (≈ 12.5 µM) |
| CCc1nc(N)nc(N)c1C#CC(C)c1cc2c(c(-c3ccc(CC(=O)O)cc3)c1)OCO2 (centres unmarked) | – | ATCC 43300 | 18 h, 37 °C | MIC | 0.01 µg/mL |
| CC(=NO)c1cccc(C(C)(C)NC(=O)Nc2ccc(Cl)c(-c3nc(C(F)(F)F)cs3)c2)c1 | – | Smith, RPMI medium | with: no guanosine | MIC | 1 µM |
| CO[C@H]1[C@H](O[C@H]([C@H]2O[C@@H](n3ccc(=O)[nH]c3=O)[C@H](O)[C@@H]2O)[C@H](NCCCNC(=O)[C@@H](NC(=O)[C@@H](NC(=O)N[C@H](C(=O)O)C(C)C)[C@@H]2CCNC(=N)N2)[C@@H](OC(=O)CCCCCCCCCCCCNC(=N)N)C(C)C)C(N)=O)O[C@H](CN)[C@H]1O | alamar blue | 71080 | – | MIC90 | 15 ± 0.239 µg/mL (≈ 12.5 µM) |
| CCc1nc(N)nc(N)c1C#CC(C)c1cc2c(c(-c3ccc(C(=O)O)cc3)c1)OCO2 (centres unmarked) | – | ATCC 43300 | 18 h, 37 °C | MIC | 0.02 µg/mL |
| CCCC1c2ccccc2C=NN1C(=O)/C=C/c1cc(Cc2cnc(N)nc2N)cc(OC)c1OC (racemic) | – | 29213 | – | MIC | 0.125 to 0.25 µg/mL |

Some of these lines once more:
| Structure (SMILES) | assay | system | setting | quantity | value |
| --- | --- | --- | --- | --- | --- |
| CO[C@H]1[C@H](O[C@H]([C@H]2O[C@@H](n3ccc(=O)[nH]c3=O)[C@H](O)[C@@H]2O)[C@H](NCCCNC(=O)[C@@H](NC(=O)[C@@H](NC(=O)N[C@H](C(=O)O)C(C)C)[C@@H]2CCNC(=N)N2)[C@@H](OC(=O)CCCCCCCCCCCCNC(=N)N)C(C)C)C(N)=O)O[C@H](CN)[C@H]1O | alamar blue | 71080 | – | MIC90 | 15 ± 0.239 µg/mL (≈ 12.5 µM) |
| CC(=NO)c1cccc(C(C)(C)NC(=O)Nc2ccc(Cl)c(-c3nc(C(F)(F)F)cs3)c2)c1 | – | Smith, RPMI medium | with: no guanosine | MIC | 1 µM |
